{"data": "Measurements collected from several papers", "note": "Compare with care: the assays were run in different laboratories."}
{"Structure (SMILES)": "O=C(NCc1ccc2c(c1)CN(C(=O)c1cc(-c3ccccc3)no1)C2)C1C=CC=CC=C1", "system": "DPBS", "setting": "2 µM", "endpoint": "stability half-life", "result": "> 48 h"}
{"Structure (SMILES)": "CCCCCCC(=O)[O][Pt]([NH2])([NH2])([Cl])([Cl])[O]C(=O)CCC(C)C1CCC2C3CCC4CC(O)CCC4(C)C3CCC12C (stereo not drawn)", "assay": "HPLC", "system": "DMEM cell culture medium", "setting": "6 h, 37 °C", "endpoint": "stability", "result": "stable"}
{"Structure (SMILES)": "CC(C)(O)c1ncc([S@](N)(=O)=NC(=O)Nc2c3c(cc4c2CCC4)CCC3)s1", "system": "human urine", "setting": "room temperature", "endpoint": "stability time", "result": "≥ 24 h"}
{"Structure (SMILES)": "O=C(Nc1cccc(C(=O)N2CCC(c3nc(-c4ccccc4)n[nH]3)CC2)c1)c1ccccc1", "system": "DPBS", "setting": "2 µM", "endpoint": "stability half-life", "result": "> 48 h"}
{"Structure (SMILES)": "CCCC[N+]1=c2cc3c4cc2[O][Mn-2]1(=[C]=O)(=[C]=O)(=[C]=O)[n+]1ccc(cc1)C(=O)Nc1ccccc1NC(=O)c1cc[n+](cc1)[Mn-2](=[C]=O)(=[C]=O)(=[C]=O)([O]3)[N+]=4CCCC", "system": "DMSO/water 8:2", "setting": "dark", "endpoint": "stability time", "result": "≥ 12 h"}
{"Structure (SMILES)": "CCCC[C@H](OC(C)=O)c1ccccc1C(=O)O", "system": "whole blood, Sprague-Dawley rat and beagle dog", "endpoint": "stability time", "result": "≤ 0.5 h"}
{"Structure (SMILES)": "CCCC[C@H](NC(=O)CNC(=O)CNC(=O)[C@H](CCCCNC(=O)[C@H](CC(=O)O)NC(=O)C(C)c1ccc(CC(C)C)cc1)NC(=O)CN1CCN(CC(=O)O)CCN(CC(=O)O)CCN(CC(=O)O)CC1)C(=O)N[C@H]1CC(=O)NCCCC[C@@H](C(N)=O)NC(=O)[C@H](Cc2c[nH]c3ccccc23)NC(=O)[C@H](CCCNC(=N)N)NC(=O)[C@@H](Cc2ccccc2)NC(=O)[C@H](Cc2c[nH]cn2)NC1=O (stereo partly drawn) [lutetium-177 labelled]", "system": "mouse serum", "setting": "4 h, 37 °C", "endpoint": "stability", "result": "stable"}
{"Structure (SMILES)": "COc1ccc(C([O-])=CC(=O)c2ccc(C(C)(C)C)cc2)cc1.[Cl-].[Ru+2].c1ccc(-c2cccc(-c3ccccn3)n2)nc1", "assay": "MLCT absorbance and HPLC", "system": "water, PBS, Opti-MEM", "setting": "37 °C", "endpoint": "stability onset time", "result": "≤ 6 h"}
{"Structure (SMILES)": "O=C([O-])CN1Cc2cccc(n2)CN(CC(=O)[O-])Cc2cccc(n2)C1.[Mn+2]", "assay": "voltammetry, Nernst equation", "setting": "Mn(III) complex", "endpoint": "stability constant log β", "result": 7.65}
{"note": "Some of these lines once more:"}
{"Structure (SMILES)": "CCCC[N+]1=c2cc3c4cc2[O][Mn-2]1(=[C]=O)(=[C]=O)(=[C]=O)[n+]1ccc(cc1)C(=O)Nc1ccccc1NC(=O)c1cc[n+](cc1)[Mn-2](=[C]=O)(=[C]=O)(=[C]=O)([O]3)[N+]=4CCCC", "system": "DMSO/water 8:2", "setting": "dark", "endpoint": "stability time", "result": "≥ 12 h"}
